Measured values gathered from unrelated publications.
Parts stem from different laboratories: compare values within a part only.

Study 1 — method: protein binding microarray; molecule type: double-stranded DNA, one strand shown; sample: in vitro; concentration: not given; relative to: not given; direction: higher = stronger binding; quantity: E-score
Target: Histone acetyltransferase KAT6A, winged helix 1, GST fusion (KAT6A, Homo sapiens, UniProt Q92794, residues 1-85)
Notes: 8-mer, flanks averaged, mean of 2 arrays, mostly near background
Residues (chain): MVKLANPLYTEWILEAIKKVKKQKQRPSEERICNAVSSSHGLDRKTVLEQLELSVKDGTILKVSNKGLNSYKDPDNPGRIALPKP
Sequence = GGCGAGTA; result = 0.234
Sequence = AATGCCAG; result = -0.0921
Sequence = AAGCGACC; result = 0.111
Sequence = CAGGAGCG; result = 0.251
Sequence = CGATTCCC; result = 0.0562
Sequence = CCGGAACG; result = 0.275
Sequence = GCCCGGCA; result = 0.284

Study 2 — method: protein-binding microarray; molecule type: double-stranded DNA, one strand shown; sample: in vitro; concentration: 0.8 µM; notes: whole 60-bp probe, no competitor; direction: higher = stronger binding; quantity: fluorescence intensity; all sequences stand within: … GTCTTGATTCGCTTGACGCTGCTG
Target: Centromere-binding protein 1, full length, N-terminal tag (CBF1, Saccharomyces cerevisiae, UniProt P17106, residues 1-351)
Sequence of UniProt P17106 (whole entry, looked up): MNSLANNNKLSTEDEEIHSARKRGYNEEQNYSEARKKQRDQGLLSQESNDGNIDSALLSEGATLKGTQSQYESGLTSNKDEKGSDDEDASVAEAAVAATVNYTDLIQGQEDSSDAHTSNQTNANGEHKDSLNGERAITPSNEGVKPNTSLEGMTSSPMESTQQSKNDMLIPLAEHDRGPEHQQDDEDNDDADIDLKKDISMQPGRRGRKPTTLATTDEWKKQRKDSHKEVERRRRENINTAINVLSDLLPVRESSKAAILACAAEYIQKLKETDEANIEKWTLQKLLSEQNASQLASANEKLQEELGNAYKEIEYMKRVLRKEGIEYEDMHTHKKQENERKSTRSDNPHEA
Sequence = GAATTTCTGTTCAACCACGCGATGAGTTTTTTTTAG; result = 630 a.u.
Sequence = GAACCGGGACCAAAACACATGAAAGCGGTTCGCTAG; result = 522 a.u.
Sequence = GAAAGTGAAAACGGAGTGGTGATGAAGATGGGGTAG; result = 505 a.u.
Sequence = CTAAATATTCTGCATCGCGTGGAACCCATGGAATTC; result = 530 a.u.
Sequence = CCTAACTACTATACCCACGTCATATAGCTTCGTACA; result = 558 a.u.
Sequence = CTATGGCGACTTTTGCACGTGAACGACGTCCCCTTC; result = 5670 a.u.
Sequence = CTACGGTCGCTTACATGCGTGATATTTAGGGGATTC; result = 537 a.u.

Study 3 — method: RNA Bind-n-Seq; molecule type: RNA; sample: in vitro; concentration: 365 nM; relative to: no-protein control; direction: higher = stronger binding; quantity: RBNS enrichment (R)
Target: RNA binding protein fox-1 homolog 2, RRM domain, GST-SBP tag (RBFOX2, Homo sapiens, UniProt O43251-10, residues 100-194)
Notes: natural RNA segment, single round, ends assumed
All sequences stand within: GGGAGUUCUACAGUCCGACGAUC … UGGAAUUCUCGGGUGCCAA
Construct (chain): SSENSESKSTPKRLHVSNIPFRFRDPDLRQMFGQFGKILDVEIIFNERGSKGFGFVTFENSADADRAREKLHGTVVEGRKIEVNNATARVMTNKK
Sequence = UGCCCUUGGUUUACUGAGGGGGGUCUUGGUUGCUGCUGAAGCCCCCCACCCCUUCUAAAGUGCAAUGCAAAAGGGACAUCAUGUAUAUGCAGCGUUUGUUUGGAAUUUUC; result = 0.676
Sequence = AUGGCACGUGACUUUUAAGCAGUAGGAUUUUGCCAAGCAGAAUUUUUGAAGGCAUGAGGCCAGUGACCCAAAGCACAGGUGCAAGUGUGCCUGGAAGGCUUCCAGCCAAA; result = 1.32
Sequence = CCGUCCCAGUUUGCCUGGGACUUUCUCAUUUUUACAGAGUCCCAAAUCCUAGGAAACUGGAGCAACUGGUACAACUGGUCACCUACUCUUGCCCCUCUGUAAAUCAAGCC; result = 0.252
Sequence = CUGUUCUUGCGGGGGAUAAAAAAGGGCUUGGGAGAUUCAUGCGAUGUGUCCAAUCGGAGACAAAAGCAGUUUCUCUCCAACUCCCUCUGGGAAGGUGACCUGGCCAGAGC; result = 0.297
Sequence = CAGGCUUGCCUGAGUGUGUGGGGUGCGCAGGCGCGUGCCUGUCUUUUUGUACUGUAACUACCUCAUGGUUUGAAUGAUGAGCGUACUGCUGGUUGUAUUAACAGAGCACA; result = 0.63
Sequence = GUCAUGUGCCGUGCCCUUUUCUGUUUCUGUGUAUCCUAUUGCUGGUGACUCUGUGUGAACUGGCCUUUGGGAAAGAUCAGAGAGGGCAGAGGUGGCACAGGACAGUAAAG; result = 0.35

Other studies, line by line
Substance = PhoQ, residues 284 288 289 292 302 303 GTAMQF; target = PhoP, residues 12 14 15 18 19 SYFRT (Escherichia coli, UniProt P23836); assay = Sort-seq, measured: YFP reporter; test system = E. coli; conditions = PhoQ-PhoP variant library, together with: 10 µM Mg2+; how to read = relative to: high Mg2+ state, higher = stronger signaling; quantity = fold induction; result = 5.13

Excerpt of the above (study 2):
Sequence = GAATTTCTGTTCAACCACGCGATGAGTTTTTTTTAG; result = 630 a.u.
Sequence = CTACGGTCGCTTACATGCGTGATATTTAGGGGATTC; result = 537 a.u.
